Assay results collected from several papers.
Every numbered part comes from another study and shows a few of its results, in no order.
UniProt P10721, sequence (whole entry, unmodified, looked up): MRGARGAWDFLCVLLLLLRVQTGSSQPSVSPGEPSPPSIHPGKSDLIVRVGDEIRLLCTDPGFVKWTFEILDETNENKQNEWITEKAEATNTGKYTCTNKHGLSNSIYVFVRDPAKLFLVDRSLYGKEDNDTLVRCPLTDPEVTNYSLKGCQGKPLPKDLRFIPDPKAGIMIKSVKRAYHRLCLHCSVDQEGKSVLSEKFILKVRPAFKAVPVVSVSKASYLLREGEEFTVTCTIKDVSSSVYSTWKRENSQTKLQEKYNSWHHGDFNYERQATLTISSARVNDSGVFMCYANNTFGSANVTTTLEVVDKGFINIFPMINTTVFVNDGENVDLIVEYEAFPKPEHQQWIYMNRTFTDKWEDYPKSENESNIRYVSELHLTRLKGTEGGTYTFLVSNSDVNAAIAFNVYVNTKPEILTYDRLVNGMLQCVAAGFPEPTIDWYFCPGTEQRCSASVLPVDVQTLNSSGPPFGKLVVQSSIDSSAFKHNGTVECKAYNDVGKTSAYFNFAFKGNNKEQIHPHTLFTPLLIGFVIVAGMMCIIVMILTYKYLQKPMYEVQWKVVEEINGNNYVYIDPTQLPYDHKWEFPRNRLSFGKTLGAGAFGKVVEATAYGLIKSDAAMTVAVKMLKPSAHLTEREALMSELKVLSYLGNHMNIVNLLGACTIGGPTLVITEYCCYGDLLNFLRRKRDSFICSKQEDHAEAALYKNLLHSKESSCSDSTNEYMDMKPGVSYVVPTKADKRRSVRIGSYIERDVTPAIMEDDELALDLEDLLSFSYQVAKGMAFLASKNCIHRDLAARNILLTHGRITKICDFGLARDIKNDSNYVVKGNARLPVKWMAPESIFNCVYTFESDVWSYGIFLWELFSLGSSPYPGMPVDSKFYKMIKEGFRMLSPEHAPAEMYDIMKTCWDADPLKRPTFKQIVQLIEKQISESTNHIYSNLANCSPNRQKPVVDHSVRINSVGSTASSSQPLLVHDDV
UniProt Q8NG66, sequence (whole entry, looked up): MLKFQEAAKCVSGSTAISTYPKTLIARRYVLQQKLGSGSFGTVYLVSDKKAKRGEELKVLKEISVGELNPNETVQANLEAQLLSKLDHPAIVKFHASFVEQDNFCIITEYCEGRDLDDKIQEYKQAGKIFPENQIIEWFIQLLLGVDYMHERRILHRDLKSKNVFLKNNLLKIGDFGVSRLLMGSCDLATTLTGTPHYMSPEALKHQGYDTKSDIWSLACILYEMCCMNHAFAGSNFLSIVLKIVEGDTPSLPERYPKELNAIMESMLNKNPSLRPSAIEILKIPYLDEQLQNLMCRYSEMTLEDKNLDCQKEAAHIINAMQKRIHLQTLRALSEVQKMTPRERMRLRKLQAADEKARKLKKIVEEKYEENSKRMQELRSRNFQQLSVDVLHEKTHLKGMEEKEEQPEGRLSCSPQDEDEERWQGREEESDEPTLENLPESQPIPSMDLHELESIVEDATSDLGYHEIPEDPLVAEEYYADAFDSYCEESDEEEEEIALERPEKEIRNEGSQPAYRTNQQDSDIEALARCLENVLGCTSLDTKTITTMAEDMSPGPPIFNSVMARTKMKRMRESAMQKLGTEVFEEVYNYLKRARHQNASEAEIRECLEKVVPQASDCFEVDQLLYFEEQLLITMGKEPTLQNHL
UniProt Q00526, sequence (whole entry, looked up): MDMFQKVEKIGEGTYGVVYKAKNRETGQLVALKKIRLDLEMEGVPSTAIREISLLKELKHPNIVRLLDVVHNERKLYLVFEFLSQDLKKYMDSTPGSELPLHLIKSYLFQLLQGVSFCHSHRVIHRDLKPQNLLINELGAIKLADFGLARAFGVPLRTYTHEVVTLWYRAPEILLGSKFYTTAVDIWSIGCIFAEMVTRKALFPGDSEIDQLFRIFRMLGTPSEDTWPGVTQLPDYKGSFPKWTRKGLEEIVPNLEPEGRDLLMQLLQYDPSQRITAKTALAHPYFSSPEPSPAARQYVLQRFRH
UniProt O00506, sequence (whole entry, looked up): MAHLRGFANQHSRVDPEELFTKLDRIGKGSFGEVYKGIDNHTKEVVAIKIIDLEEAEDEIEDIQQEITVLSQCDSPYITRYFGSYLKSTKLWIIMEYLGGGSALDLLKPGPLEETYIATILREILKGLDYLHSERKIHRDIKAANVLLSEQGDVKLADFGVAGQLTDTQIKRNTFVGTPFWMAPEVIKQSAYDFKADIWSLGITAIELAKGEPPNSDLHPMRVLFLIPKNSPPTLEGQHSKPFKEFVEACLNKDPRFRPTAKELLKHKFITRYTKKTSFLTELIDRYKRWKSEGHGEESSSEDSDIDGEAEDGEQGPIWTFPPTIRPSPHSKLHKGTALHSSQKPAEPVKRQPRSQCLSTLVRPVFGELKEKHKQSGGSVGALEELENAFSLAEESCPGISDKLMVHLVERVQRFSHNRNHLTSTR
UniProt Q13464, sequence (whole entry, looked up): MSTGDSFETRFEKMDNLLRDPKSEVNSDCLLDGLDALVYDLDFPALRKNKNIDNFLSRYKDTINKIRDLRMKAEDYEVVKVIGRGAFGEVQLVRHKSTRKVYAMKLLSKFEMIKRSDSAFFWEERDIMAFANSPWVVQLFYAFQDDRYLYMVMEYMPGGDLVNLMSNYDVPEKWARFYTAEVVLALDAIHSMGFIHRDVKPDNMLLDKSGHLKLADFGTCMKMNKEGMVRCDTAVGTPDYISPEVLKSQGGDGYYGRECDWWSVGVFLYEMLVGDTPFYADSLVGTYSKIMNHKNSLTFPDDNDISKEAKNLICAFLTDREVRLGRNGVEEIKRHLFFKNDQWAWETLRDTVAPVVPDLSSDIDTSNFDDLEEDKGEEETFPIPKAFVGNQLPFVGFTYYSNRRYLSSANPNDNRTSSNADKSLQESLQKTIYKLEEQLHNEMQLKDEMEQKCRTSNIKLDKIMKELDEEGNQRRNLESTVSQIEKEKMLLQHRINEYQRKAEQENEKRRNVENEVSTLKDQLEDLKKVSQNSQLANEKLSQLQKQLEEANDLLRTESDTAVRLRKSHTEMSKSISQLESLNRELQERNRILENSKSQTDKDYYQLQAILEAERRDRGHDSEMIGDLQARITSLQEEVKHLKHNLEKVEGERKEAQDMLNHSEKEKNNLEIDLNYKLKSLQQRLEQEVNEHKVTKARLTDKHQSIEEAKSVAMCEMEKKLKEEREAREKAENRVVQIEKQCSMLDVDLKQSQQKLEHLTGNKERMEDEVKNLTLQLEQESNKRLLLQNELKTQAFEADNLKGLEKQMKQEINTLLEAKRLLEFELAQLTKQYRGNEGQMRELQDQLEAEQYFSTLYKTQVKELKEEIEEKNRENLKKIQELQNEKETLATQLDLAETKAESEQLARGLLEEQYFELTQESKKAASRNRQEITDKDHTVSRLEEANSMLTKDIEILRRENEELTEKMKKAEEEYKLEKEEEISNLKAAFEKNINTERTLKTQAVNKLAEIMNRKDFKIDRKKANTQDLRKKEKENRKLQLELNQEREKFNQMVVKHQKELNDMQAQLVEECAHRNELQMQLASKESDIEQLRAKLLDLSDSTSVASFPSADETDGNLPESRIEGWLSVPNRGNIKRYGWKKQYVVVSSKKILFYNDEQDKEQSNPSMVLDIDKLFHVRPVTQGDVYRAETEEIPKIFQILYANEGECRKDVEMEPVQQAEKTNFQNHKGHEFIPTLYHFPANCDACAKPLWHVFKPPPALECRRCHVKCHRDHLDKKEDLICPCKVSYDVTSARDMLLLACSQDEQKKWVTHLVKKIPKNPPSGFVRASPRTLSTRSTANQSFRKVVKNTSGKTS
UniProt P48729, sequence (whole entry, looked up): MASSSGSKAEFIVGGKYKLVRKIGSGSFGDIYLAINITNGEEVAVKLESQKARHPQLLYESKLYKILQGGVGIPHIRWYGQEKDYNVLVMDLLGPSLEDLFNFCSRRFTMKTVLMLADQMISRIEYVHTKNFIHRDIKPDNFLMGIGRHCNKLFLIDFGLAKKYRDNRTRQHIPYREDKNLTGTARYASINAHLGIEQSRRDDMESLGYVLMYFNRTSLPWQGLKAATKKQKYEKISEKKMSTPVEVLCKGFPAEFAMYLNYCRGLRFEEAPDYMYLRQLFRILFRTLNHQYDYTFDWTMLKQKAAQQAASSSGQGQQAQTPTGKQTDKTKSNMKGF
UniProt P51817, sequence (whole entry, looked up): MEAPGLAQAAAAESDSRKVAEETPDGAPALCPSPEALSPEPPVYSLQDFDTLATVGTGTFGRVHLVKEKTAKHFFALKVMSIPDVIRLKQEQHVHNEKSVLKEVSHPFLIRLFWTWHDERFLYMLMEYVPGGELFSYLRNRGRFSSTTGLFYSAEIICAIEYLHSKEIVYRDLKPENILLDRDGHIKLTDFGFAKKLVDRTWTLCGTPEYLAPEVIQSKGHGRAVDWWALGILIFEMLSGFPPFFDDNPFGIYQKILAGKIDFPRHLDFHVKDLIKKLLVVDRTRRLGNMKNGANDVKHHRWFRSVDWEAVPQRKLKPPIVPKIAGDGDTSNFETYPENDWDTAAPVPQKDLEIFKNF

Study 1 — SMILES: CSc1cccnc1N1CCN(Cc2nc3ccccc3[nH]2)CC1; read-out: cell-free assay; method: competition with immobilised ligand; tested at: 1 µM
target	remaining binding [%]
TNIK (Homo sapiens, UniProt Q9UKE5)	100
EGFR (Homo sapiens, UniProt P00533, L861Q)	100
ERBB3 (Homo sapiens, UniProt P21860)	90
KIT (Homo sapiens, UniProt P10721, A829P)	100
KIT (Homo sapiens, UniProt P10721, D816V)	90
Ribosomal protein S6 kinase alpha-4, C-terminal kinase domain (RPS6KA4, Homo sapiens, UniProt O75676)	73
CSNK1A1 (Homo sapiens, UniProt P48729)	72
AAK1 (Homo sapiens, UniProt Q2M2I8)	100
ROCK1 (Homo sapiens, UniProt Q13464)	93
BMX (Homo sapiens, UniProt P51813)	100
CAMK2A (Homo sapiens, UniProt Q9UQM7)	100
PLK2 (Homo sapiens, UniProt Q9NYY3)	71
CIT (Homo sapiens, UniProt O14578)	100
KIT (Homo sapiens, UniProt P10721, V559D/V654A)	100
CLK1 (Homo sapiens, UniProt P49759)	80
FGFR4 (Homo sapiens, UniProt P22455)	89
NEK10 (Homo sapiens, UniProt Q6ZWH5)	78
MAP3K11 (Homo sapiens, UniProt Q16584)	100
NEK11 (Homo sapiens, UniProt Q8NG66)	79

Study 2 — SMILES: Nc1ncnc2c1cnn2-c1ccccc1; read-out: enzyme activity; mode: inhibitor; tested at: 0.5 µM; relative to: control
target	remaining activity [%]
MATK (Homo sapiens, UniProt P42679)	89.9
AKT1 (Homo sapiens, UniProt P31749)	103
TAOK3 (Homo sapiens, UniProt Q9H2K8)	89.1
HIPK1 (Homo sapiens, UniProt Q86Z02)	98.4
NEK11 (Homo sapiens, UniProt Q8NG66)	107
PASK (Homo sapiens, UniProt Q96RG2)	96.8
STK25 (Homo sapiens, UniProt O00506)	93.2
NLK (Homo sapiens, UniProt Q9UBE8)	92.5
PRKX (Homo sapiens, UniProt P51817)	95.3
Insulin receptor (INSR, Homo sapiens, UniProt P06213)	103
Cyclin-dependent kinase 3, with cyclin E (CDK3, Homo sapiens, UniProt Q00526)	96.2
ALK (Homo sapiens, UniProt Q9UM73)	90.9
FLT4 (Homo sapiens, UniProt P35916)	108
LIM domain kinase 1 (LIMK1, Homo sapiens, UniProt P53667)	89.1
SRC (Homo sapiens, UniProt P12931)	96.9
PKN1 (Homo sapiens, UniProt Q16512)	98.6
FGR (Homo sapiens, UniProt P09769)	93.8
CDC42BPA (Homo sapiens, UniProt Q5VT25)	90.2
FER (Homo sapiens, UniProt P16591)	99
ITK (Homo sapiens, UniProt Q08881)	92.7
MARK3 (Homo sapiens, UniProt P27448)	86.1
FYN (Homo sapiens, UniProt P06241)	97.8

Study 3 — species: mouse; medium: microsomes or S9; tested at: 2 µM; time: 0.5 h
SMILES	remaining compound [%]
c1ccc(C(CNc2ccc3nnnn3n2)c2c[nH]c3ccccc23)cc1 (stereo not drawn)	2.96
COCC(C)(O)CNS(=O)(=O)c1ccc(N2CCCCS2(=O)=O)cc1 (stereo not drawn)	92.8
CS(=O)(=O)N(Cc1ccco1)Cc1ccc(C(=O)O)o1	79.6
COCc1cc(C)nc2sc(C3=NC(C)(C)Cc4cc(OC)c(OC)cc43)c(N)c12	0.0525
COc1cc(=O)n(C)cc1C(=O)N1CCN(S(=O)(=O)C2CC2)CC1	72.9
COC(C(=O)Nc1ccc(S(=O)(=O)Nc2cccc(Cl)c2Cl)cc1)c1ccccc1 (stereo not drawn)	15
O=C(O)CCCN1C(=O)C2Cc3ccccc3CN2C1=O (stereo not drawn)	17.3
CC1CC(=O)NN=C1c1ccc(-n2ccnc2)c(F)c1 (stereo not drawn)	65.1
CCc1ccc(S(=O)(=O)NCc2cccc(CS(C)(=O)=O)c2)s1	0.622
Cc1ccc(S(=O)(=O)n2cc(Br)c3c(N4CCC(O)CC4)ncnc32)cc1	2.53
O=C(NC1=C(C(=O)c2ccccc2)N(Cc2ccccc2)S(=O)(=O)c2ccccc21)c1ccccc1	0.804
CC(C)S(=O)(=O)CCCn1cc(Br)ccc1=O	81.1
O=C(NCCc1ccccc1)Nc1cnc(O)nc1O	90.2
O=C(Nc1cccc2c1N(c1ncccn1)CC2)c1ccccc1	0.0814
Cc1nc(S(=O)(=O)Nc2cnc3ccnn3c2)cn1C	91.2
O=C(Nc1nc2ccc(F)cn2n1)NC1C2CCOC2C12CCC2 (stereo not drawn)	29.3
Nc1c(NC(=O)N2CCCC2)c(-c2ccc(Cl)cc2)nn1-c1cc(F)ccc1F	76.7
Cc1ccc(NC(=O)Cn2nc3c(N4CC(C)CC(C)C4)nccn3c2=O)c(Cl)c1 (stereo not drawn)	0.876
NC(=O)c1cccc2cc(CN3CCN(c4ccccc4Cl)CC3)oc12	21.3
O=C(Cn1cc(-c2ccccc2)ncc1=O)NCCn1ccc2ccc(Br)cc21	3.62
NS(=O)(=O)c1ccc(CCNc2nc3c(S(=O)(=O)c4ccccc4)nnn3c3ccccc23)cc1	3.19
CC(C)(C)c1cc(-c2c(O)c3ccc(Cl)cc3[nH]c2=O)cc(C(C)(C)C)c1O	94.1
Cc1cc(-c2nnc(Cn3cnc4c3c(=O)n(C)c(=O)n4C)o2)c(C)o1	33.6

Study 4 — cell line: HaCaT; tested at: 100 µM; time: 60 h
Compound	viability [%]
O=C(O)C[C@H](O)C[C@H](O)/C=C/c1c(C2CC2)nc2ccccc2c1-c1ccc(F)cc1	19.1
NCCc1c[nH]cn1	135
CNC1CCCN(c2c(F)cc3c(=O)c(C(=O)O)cn(C4CC4)c3c2OC)C1 (stereo not drawn)	129
COc1cc(C[C@H]2C(=O)OC[C@@H]2Cc2ccc(OC)c(OC)c2)ccc1O	121
C#C[C@]1(O)CC[C@H]2[C@@H]3CCc4cc(O)ccc4[C@H]3CC[C@@]21C	15.8
O=c1ccc2cc3ccoc3cc2o1	111
CCCCCCCCCCCCCCCCCCCCCCO	136
COc1cc2ccc(=O)oc2cc1OC	97.8

Excerpt of the above (study 1):
target	remaining binding [%]
ERBB3 (Homo sapiens, UniProt P21860)	90
CAMK2A (Homo sapiens, UniProt Q9UQM7)	100
Ribosomal protein S6 kinase alpha-4, C-terminal kinase domain (RPS6KA4, Homo sapiens, UniProt O75676)	73
EGFR (Homo sapiens, UniProt P00533, L861Q)	100
KIT (Homo sapiens, UniProt P10721, A829P)	100
TNIK (Homo sapiens, UniProt Q9UKE5)	100
BMX (Homo sapiens, UniProt P51813)	100
NEK10 (Homo sapiens, UniProt Q6ZWH5)	78
MAP3K11 (Homo sapiens, UniProt Q16584)	100
FGFR4 (Homo sapiens, UniProt P22455)	89
CSNK1A1 (Homo sapiens, UniProt P48729)	72
